Measurements collected from several papers.
Numbered parts are unrelated; each lists some results of a single study.

Series 1 — method: RNA Bind-n-Seq; form: RNA; sample: in vitro; tested at: 20 nM; setting: 6-mer, flanks averaged, single round; with: 150 mM LiCl; reference: input library; direction: higher = stronger binding
Target: TAR DNA-binding protein 43, full length, His tag (TARDBP, Homo sapiens, UniProt Q13148, residues 1-414)
| Sequence | 6-mer enrichment (R) |
| --- | --- |
| CCCCCC | 1.66 |
| CACUAU | 0.912 |
| AGGAGC | 0.966 |
| GUUGUU | 1.37 |
| CGCCAG | 0.895 |
| UGAGAA | 1 |
| AUGGCC | 0.976 |
| UAUAGU | 1.02 |
| CGCACA | 0.898 |
| CACAGG | 0.882 |
| UUUUGU | 1.55 |
| ACAUCA | 0.827 |
| GCGCUC | 0.894 |
| UAUAGG | 0.984 |
| UGUUUA | 1.28 |
| UAUACC | 0.912 |
| CCUCUA | 0.924 |
| UACGAU | 0.827 |
| CUGAAU | 0.892 |
| GUGAGU | 1.5 |
| ACUCCC | 1.12 |
| UAGCAA | 0.862 |
| CUAGAU | 0.819 |
| UUCACC | 0.95 |
| CCCGGA | 0.918 |

Series 2 — method: RNA Bind-n-Seq; form: RNA; sample: in vitro; tested at: 365 nM; reference: no-protein control; direction: higher = stronger binding
Target: RNA binding protein fox-1 homolog 2, RRM domain, GST-SBP tag (RBFOX2, Homo sapiens, UniProt O43251-10, residues 100-194)
Setting: natural RNA segment, single round, ends assumed
Construct (chain): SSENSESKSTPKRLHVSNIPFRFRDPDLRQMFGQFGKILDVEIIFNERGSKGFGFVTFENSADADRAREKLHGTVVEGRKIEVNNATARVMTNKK
| Sequence | RBNS enrichment (R) |
| --- | --- |
| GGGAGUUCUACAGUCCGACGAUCUUAAGUACAAGUUGAACAAAAAUUAUGAAAAGGUAUAUUUGCUUCUCGGGAAAGCAAAGAAGCUGCUUUAAAAAAUAAAAAGGGGACUAAAAAUUUGUUUUGUAUAAAGAUGGAAUUCUCGGGUGCCAA | 1.01 |
| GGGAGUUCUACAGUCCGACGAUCGCCUCAUGAUUGUCUGGAGUGUAUCAUGAAACAAAAGUCCACCAUGGAUUGCAAGCUUUAGAACGAAUCAAGCAUUUUCCCUAGCCAGGCAAGGCAUUCGUUUCCUUACUUGGAAUUCUCGGGUGCCAA | 0.266 |
| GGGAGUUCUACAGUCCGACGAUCGAAUUAAAAAAAAAAAGCUUUGCCAAUAGCUAAAAAGUACAAGCUAUUAAAAAUCAGAUUGAAAAGUUUUGAGAAAAUGUUAUUUUUACUGAAAGCAAGCAGUGGCCUAUUGGAAUUCUCGGGUGCCAA | 0.706 |
| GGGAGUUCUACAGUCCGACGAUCCAAGUAUUAAGAUAAUUUGUACAUGUAGAGAAAAAAAUGACUUUUUCAUAAUAUACAGGGGCAGCUGCCAAAUUGAUGUAUUAUAAUAUUGUGGUUUCUGUUUCUUGAGAUGGAAUUCUCGGGUGCCAA | 0.772 |
| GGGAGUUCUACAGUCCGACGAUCAACUGCAGGGAAAAUUAUUUGCAUAACAAUUCCUCUACUAACAAUCAGCUCCUUCCUGGAGACUGCCCAGCUAAAGCAAUAUGCAUUUAAAUACAGUCUUCCAUUUGCAAUGGAAUUCUCGGGUGCCAA | 0.339 |
| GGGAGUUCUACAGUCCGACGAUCUCCCUGUUGUCUGGAAACAGUUGAGUUGGAGCCUGUUGCCAAUGCUGCCCUCUGCCACCCUGUGGCUGCCCUGGCUCUCUGGUCUCUAUCACCCACACAGCACCAUCUCCUGGAAUUCUCGGGUGCCAA | 0.527 |
| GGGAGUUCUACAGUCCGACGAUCCAAGUUGUGGCUUAUUUUCCUGUUCCCUAAACCGAUCCCUAUUCCAUCAACAUGGCACCCUGCCUCAUUGGCUAAGUGUUAAGUGAUGGGCUUAUUCUUGAAAGCAGCUUUGGAAUUCUCGGGUGCCAA | 0.347 |
| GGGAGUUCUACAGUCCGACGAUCCUCAGCCAAGCUUGUUUCCUGCUCUGAGGCUUGUGGGGUGGGAGCCAGAGUGGAGGUCGGUGAAAUAAGUGAUGCAAUUAGACCCCACCGGCUCCUGCUUCUAAAGAGCGUGGAAUUCUCGGGUGCCAA | 5.32 |
| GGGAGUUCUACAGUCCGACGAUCGUGCCUAUGAAAUCUCAUCCAACUUUUGAUUAUUCAUGGAUUGAUUAUCCGCUUUUUUUUUGCUUUUUUGCUGCCAUUGCUAUGCCUGGUCUCGUCUGCAUCAAAUAUACUGGAAUUCUCGGGUGCCAA | 1.79 |
| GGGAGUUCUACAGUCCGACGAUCUGCUUCAUCGUCUUGGCUGAGAAAGGGAAAAGACACACAAGUCGCGUGGGUUGGAGAAGCCAGAGCCAUUCCACCUCCCCUCCCCCAGCAUCUCUCAGAGAUGUGAAGCCUGGAAUUCUCGGGUGCCAA | 0.297 |
| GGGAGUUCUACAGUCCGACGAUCUGUUGUCUCCUCCUAAUGUCCACCUCAGUGACGAGGUUCCACACUGUCUCCUCACCUCUUGUCACGGCUUCCCUAUGUGGAUAUAUAAAGAACCAAACUGAUUCGCUGUUUGGAAUUCUCGGGUGCCAA | 0.608 |
| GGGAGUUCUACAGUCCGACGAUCGACACCCUGGUGCUGCUGCUGGUGAGACUGGUGUCCAAGGCAGGGCCCAGCAGAAACUGCAGCCUGCUGUCUACCAAAGGAGGUACCCGAGUUGGGUACUUUAAAAAAAAUGGAAUUCUCGGGUGCCAA | 0.288 |

Series 3 — method: universal PBM; form: double-stranded DNA, one strand shown; sample: in vitro; tested at: 600 nM; direction: higher = stronger binding
Target: Sal-like protein 4, full length isoform A (SALL4, Homo sapiens, UniProt Q9UJQ4, residues 1-1053)
Sequence of UniProt Q9UJQ4 (whole entry, looked up): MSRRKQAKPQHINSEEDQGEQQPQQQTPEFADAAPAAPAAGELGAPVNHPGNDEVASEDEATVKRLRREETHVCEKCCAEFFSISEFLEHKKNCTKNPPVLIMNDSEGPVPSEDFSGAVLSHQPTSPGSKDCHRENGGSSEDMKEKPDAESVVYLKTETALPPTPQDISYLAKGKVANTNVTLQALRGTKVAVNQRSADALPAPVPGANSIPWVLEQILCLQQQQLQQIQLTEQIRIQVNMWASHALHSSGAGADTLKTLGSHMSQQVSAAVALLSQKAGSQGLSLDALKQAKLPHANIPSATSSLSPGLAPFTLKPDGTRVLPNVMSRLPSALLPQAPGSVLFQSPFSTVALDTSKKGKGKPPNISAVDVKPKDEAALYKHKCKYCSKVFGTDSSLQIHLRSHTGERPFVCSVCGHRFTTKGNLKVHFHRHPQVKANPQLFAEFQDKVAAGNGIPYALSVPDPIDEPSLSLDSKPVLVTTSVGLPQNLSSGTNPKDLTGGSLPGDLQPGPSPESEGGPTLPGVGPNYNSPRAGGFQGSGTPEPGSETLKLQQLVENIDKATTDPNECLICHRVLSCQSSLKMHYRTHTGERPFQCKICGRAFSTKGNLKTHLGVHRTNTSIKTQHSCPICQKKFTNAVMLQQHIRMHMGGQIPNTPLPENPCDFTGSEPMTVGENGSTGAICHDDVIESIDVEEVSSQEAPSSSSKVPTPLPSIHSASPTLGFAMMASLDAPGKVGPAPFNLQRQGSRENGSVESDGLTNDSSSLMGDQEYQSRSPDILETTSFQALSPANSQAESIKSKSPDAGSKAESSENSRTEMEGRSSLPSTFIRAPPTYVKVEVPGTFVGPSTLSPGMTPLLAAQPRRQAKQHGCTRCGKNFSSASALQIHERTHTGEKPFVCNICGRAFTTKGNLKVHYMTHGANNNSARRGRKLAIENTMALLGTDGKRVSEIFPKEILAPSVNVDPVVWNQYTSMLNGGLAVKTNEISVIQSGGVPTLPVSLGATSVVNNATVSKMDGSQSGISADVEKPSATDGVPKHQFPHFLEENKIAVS
Setting: 8-mer, flanks averaged, mean of replicates
| Sequence | E-score |
| --- | --- |
| GCTTGTCC | -0.165 |
| CAACGTCA | -0.0305 |
| CTTCTCTA | 0.0329 |
| ATTCTAGG | 0.169 |
| ACTGCTCG | -0.0756 |
| CCATTTAC | 0.078 |
| CACGATCG | -0.0254 |
| ACCGTGAT | 0.106 |
| AAAGGTTA | 0.107 |
| CCTCGTGC | -0.0968 |
| CGCGATCC | -0.235 |
| AATGTTTG | 0.131 |
| TACCTTGA | 0.0911 |
| ATGGATGG | -0.0156 |
| CATCTGCC | -0.27 |
| AAGTTCAG | 0.0478 |
| AGAAAACT | 0.0727 |
| ATCTCGAA | 0.0275 |
| ACGTAGGG | -0.123 |
| AGCCAGCC | -0.249 |
| TCGAACGA | -0.0519 |
| CGCTCGGC | -0.399 |
| GTACAGAC | 0.126 |
| CTATGCTA | 0.18 |
| ACTTGCTG | 0.0144 |

Series 4 — method: protein-binding microarray; form: double-stranded DNA, one strand shown; sample: in vitro; tested at: 250 nM; setting: 60-bp whole probe; with: salmon DNA 0.4 mg/ml; reference: random background probes; direction: higher = stronger binding; all sequences stand within: GCCTAGCAC … GTCTTGATTCGCTTGACGCTGCTG
Target: Interferon regulatory factor 5, full length, phosphomimetic (IRF5, Homo sapiens, UniProt Q13568-2, residues 1-514, K96S/S451D/S453D/S456D/S462D)
| Sequence | log fluorescence |
| --- | --- |
| GACGGACCGGGACTGGGGACGTGCTAG | -0.729 z-score |
| GACGGTGTCCTTATCCTGACGTGCTAG | -0.29 z-score |
| GACGGACTGGGGACTGTGGACGTGCTA | -0.483 z-score |
| GACGGTTTCCTTATCGTGACGTGCTAG | 0.873 z-score |
| TTAGGTATCGACACTGGTTTAGTGCTA | 2.75 z-score |
| GGTGCCTCGGGTTCAGGGAGGTGCTAG | -0.785 z-score |
| AAGTAAAATGCAAAGAGGAAGTGCTAG | 0.0623 z-score |
| TTCTGATCCATTTTGGTTTTGTGCTAG | 0.774 z-score |
| GACGCTTCCGGTTTCGGGACGTGCTAG | 5.18 z-score |
| GACGATTTCGGGTAACGAGACGTGCTA | 4.36 z-score |
| TCAAAAATGGAAACTCGTACTGTGCTA | 0.54 z-score |
| GACGATATCAGGATCGAGACGTGCTAG | 0.593 z-score |
| TTAGGTCTCGGCATCGGTTAGTGCTAG | 0.172 z-score |
| GACGGTCTCGGTATCGGAACGTGCTAG | 1.65 z-score |
| GCCGGACTGCTACTGCTGACGTGCTAG | -0.727 z-score |
| TTAGGTCTGGGTCTCGGTTAGTGCTAG | 0.153 z-score |
| TTAGGTTTGGGGTATCGGTTAGTGCTA | 2.36 z-score |
| CTATCTCTGTTTTTGCTTTCGTGCTAG | 3.47 z-score |

Series 5 — method: protein binding microarray; form: double-stranded DNA, one strand shown; sample: in vitro; tested at: not given; reference: not given; direction: higher = stronger binding
Target: Histone acetyltransferase KAT6A, winged helix 2, GST fusion (KAT6A, Homo sapiens, UniProt Q92794, residues 85-181)
Setting: 8-mer, flanks averaged, mean of 2 arrays, mostly near background
Construct (chain): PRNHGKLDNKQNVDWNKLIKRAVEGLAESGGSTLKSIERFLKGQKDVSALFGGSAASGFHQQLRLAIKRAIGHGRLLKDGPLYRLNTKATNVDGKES
| Sequence | E-score |
| --- | --- |
| CTTATAAG | -0.0144 |
| ACGAATCC | 0.0693 |
| GCGTCTAC | -0.038 |
| AATCGACG | -0.0659 |
| AAGGTAAG | -0.0246 |
| AAGCGATT | -0.0758 |
| CAGGCAAG | 0.0471 |
| AACGATAA | -0.186 |
| AACTGGCT | -0.102 |
| AAAACTGG | -0.00483 |
| CGGTTTTC | 0.0939 |
| AGTAAGAT | -0.0952 |
| CTGCGTTA | -0.00637 |
| AAGCGCTT | 0.273 |
| AACGGAAG | -0.0746 |
| AGCCGGCG | 0.239 |
| CGGACACA | -0.00588 |
| AGTGCAGC | 0.191 |
| CACAGAGA | -0.0652 |

For quick reference, copied from above (series 4):
| Sequence | log fluorescence |
| --- | --- |
| GACGATATCAGGATCGAGACGTGCTAG | 0.593 z-score |
| TTAGGTCTGGGTCTCGGTTAGTGCTAG | 0.153 z-score |
| GCCGGACTGCTACTGCTGACGTGCTAG | -0.727 z-score |
| GACGGTGTCCTTATCCTGACGTGCTAG | -0.29 z-score |
| GACGGACTGGGGACTGTGGACGTGCTA | -0.483 z-score |
| TTAGGTTTGGGGTATCGGTTAGTGCTA | 2.36 z-score |
| AAGTAAAATGCAAAGAGGAAGTGCTAG | 0.0623 z-score |
| CTATCTCTGTTTTTGCTTTCGTGCTAG | 3.47 z-score |
| TTAGGTATCGACACTGGTTTAGTGCTA | 2.75 z-score |
| GACGATTTCGGGTAACGAGACGTGCTA | 4.36 z-score |
| GACGGTCTCGGTATCGGAACGTGCTAG | 1.65 z-score |
| GGTGCCTCGGGTTCAGGGAGGTGCTAG | -0.785 z-score |
| TTCTGATCCATTTTGGTTTTGTGCTAG | 0.774 z-score |
| TCAAAAATGGAAACTCGTACTGTGCTA | 0.54 z-score |
| GACGGACCGGGACTGGGGACGTGCTAG | -0.729 z-score |
